Published values from different studies.
“And” joins repeats or separate records; there may be more than shown. ± marks the error that the study gave.

C=C(C[C@H](N)C(=O)O)C(=O)Nc1ccc(F)cc1  concentration increasing cytotoxicity (MDA-MB-231; 72 h; relative to: vehicle): 320 µM
CC[C@H](C)[C@@H]1NC(=O)[C@@H]2CSSC[C@H](NC(=O)[C@H](C(C)C)NC(=O)[C@H]([C@@H](C)CC)NC(=O)[C@H](C(C)C)NC(=O)[C@@H](NC(=O)[C@H](CCCCN)NC(=O)[C@@H](N)CCCNC(=N)N)CSSC[C@@H](C(=O)N[C@@H](CCCNC(=N)N)C(=O)O)NC(=O)[C@H](CC(C)C)NC(=O)[C@H]([C@@H](C)CC)NC1=O)C(=O)N[C@@H](CCCNC(=N)N)C(=O)N[C@@H](CCCNC(=N)N)C(=O)N[C@@H](CC(N)=O)C(=O)N[C@@H](CCCNC(=N)N)C(=O)N[C@@H](CCCNC(=N)N)C(=O)N2  hemolysis (human red blood cells; 128 µg/mL, 3 h, 37 °C; relative to: Triton X-100): 0.87%
CC(=O)O[C@@]12CO[C@@H]1C[C@H](O)[C@@]1(C)C(=O)[C@H](OC(=O)C3CC3)C3=C(C)[C@@H](OC(=O)[C@H](O)[C@H](C=C(C)C)NC(=O)OC(C)(C)C)C[C@@](O)([C@@H](OC(=O)c4ccccc4)[C@H]21)C3(C)C  IC50 (L1210; cytotoxicity, MTT; 72 h): 9.7 nM and 9.72 nM
Nc1ccn(C[C@@H](CO)OCP(=O)(O)O)c(=O)n1.O.O  minimum cytotoxic concentration (HEL embryonic lung fibroblasts; cell morphology, microscopy): 300 µM
C=C(C)[C@]12C[C@@H](COC(=O)c3ccccc3)[C@]34OC5(CCCCCCC[C@H](C)[C@@H]6[C@@H]3[C@]3(O[C@]6(C)OC3=O)[C@H](O)[C@@]3(CO)O[C@H]3[C@H]4[C@H]1O5)O2  IC50 (MT4; cell growth or viability, ATP luminescence): 3400 nM
C[C@H](Cn1cnc2c(N)ncnc21)OCP(=O)(O)O  intracellular accumulation (hCMEC/D3; 5 µM, 1 h, 37 °C, 3-drug cART combination): 2.63 ± 0.86 pmol/mg protein
Cl.O=C(CN(Cc1ccccc1)S(=O)(=O)NCc1cccc(Oc2ccccc2)c1)NCCN1CCOCC1  TD50 (HG23 norovirus replicon cells; 48 h): 55 ± 12 µM
Cl.Cl.O=C(Nc1ccc(O[C@H]2CCNC2)c(-c2ccc(F)cc2)c1)c1ccc(O[C@H]2CCNC2)c(-c2ccc(F)c(F)c2)c1  nonspecific binding (MDA-MB-231; trypsin-EDTA digestion vs solvent extraction; concentration not given, 6 h): 18%
CC(C)N(N=O)C(C)C  relative survival (HepaRG, 2D; concentration not given, 24 h, highest tested concentration, hEGF 3 days; relative to: vehicle): 77.8%
Nc1nc(O)c2ncn(COC(CO)CO)c2n1  minimum cytotoxic concentration (HEL fibroblasts; cell morphology, microscopy): > 394 µM
Cc1cccn2c(=O)c3cc(C(=O)Nc4ccc(N(C)C)cc4)n(C)c3nc12  IC50 (Vero E6; MTT): 87300 ± 6650 nM
COCCN1C(N)=NC(N)=NC12CCN(C(=O)NC1CCC(C)CC1)CC2 (centres unmarked)  minimum cytotoxic concentration (MDCK; microscopy, altered cell morphology): > 100 µM
COc1ccc2cc3[n+](cc2c1OC)CCc1cc2c(cc1-3)OCO2  point of departure (human iPSC-derived cardiomyocytes; mitochondrial membrane potential, item: JC-10 granules; 30 min): < 30 µM
O=c1c(O)c(-c2ccc(O)c(O)c2)oc2cc(O)ccc12  maximum non-toxic concentration (A549; cell viability, MTS; 3 days, 90% cells viable): 121.9 ± 0.99 µM
COc1c(O)cc2oc3cc(O)c(CC=C(C)C)c(O)c3c(=O)c2c1CC=C(C)C  xanthone amount (Caco-2; RP-HPLC; concentration not given, 24 h, Transwell inserts): 9370 ± 510 pmol/dish
CC(C)C[C@H](NC(=O)[C@H](Cc1ccccc1)NC(=O)[C@H](Cc1ccccc1)NC(=O)Cc1ccc(-c2ccccc2)cc1)C(=O)N[C@@H](CCCCN)C(=O)N[C@@H](CCCNC(=N)N)C(=O)N[C@H](C(=O)N[C@@H](Cc1c[nH]c2ccccc12)C(=O)N[C@@H](CCCCN)C(=O)N[C@@H](CCCNC(=N)N)C(=O)O)C(C)C  viability (THP-1; MTT; concentration not given, 24 h): > 80%
CN(CCCC(=O)O)N=O  lowest effective concentration (HepaRG spheroids; micronucleus formation, flow cytometry; 24 h; relative to: vehicle control): 7500 µM
c1ccc2c(c1)-c1cccc3c1c-2cc1ccccc13  point of departure (human iPSC-derived cardiomyocytes; cytotoxicity, calcein AM; 24 h): < 30 µM
CC1(C)[C@H](C(=O)O[C@H](C#N)c2cccc(Oc3ccccc3)c2)[C@@H]1C=C(Br)Br  apoptotic cells ratio (Caco-2; Hoechst and PI staining; 25 µM, 48 h; relative to: untreated): 4.3
CCN(N=O)C(C)C  ATP level (HepaRG 3D spheroids; cell viability; concentration not given, 24 h; relative to: vehicle): 82.5%

Some of these lines once more:
C[C@H](Cn1cnc2c(N)ncnc21)OCP(=O)(O)O  intracellular accumulation (hCMEC/D3; 5 µM, 1 h, 37 °C, 3-drug cART combination): 2.63 ± 0.86 pmol/mg protein
Cl.Cl.O=C(Nc1ccc(O[C@H]2CCNC2)c(-c2ccc(F)cc2)c1)c1ccc(O[C@H]2CCNC2)c(-c2ccc(F)c(F)c2)c1  nonspecific binding (MDA-MB-231; trypsin-EDTA digestion vs solvent extraction; concentration not given, 6 h): 18%
